Experimental data of several laboratories.
Each line is one published result; not all experiments were run side by side.
Target: Cytochrome P450 2C9 (CYP2C9, Homo sapiens, UniProt P11712)

Compound = CC(=O)c1cccc(-c2nc(Nc3ccccc3)nc(N3CCOCC3)n2)c1; conditions = 10 µM; endpoint = inhibition; result = 98%
Compound = Cc1cc(-c2ccc3ccccc3c2)nnc1NCCN1CCN(C)CC1; assay = substrate; test system = recombinant enzyme; conditions = 100 nM, 0.5 h; endpoint = remaining compound; result = 89%
Compound = O=C(CN1C(=O)C2(CCN(C(=O)c3cnc4[nH]ncc4c3)CC2)c2c(Cl)cccc21)NCC(F)(F)F; assay = enzyme activity, inhibitor; endpoint = IC50; result = 12 µM
Compound = C[C@@H](c1ccc2nccn2c1)n1nnc2ncc(-c3cn[nH]c3)nc21; assay = enzyme activity, inhibitor; test system = human, liver microsomes; endpoint = IC50; result = 13 µM
Compound = CN[C@@H]1[C@H](O)[C@H](NC)[C@H]2O[C@]3(O)[C@H](O[C@@H]2[C@H]1O)O[C@H](C)C[C@H]3NC(=O)Cc1cc(Cl)ccn1; conditions = 10 µM; endpoint = inhibition; result = 0%
Compound = O=C(CN1C(=O)C2(CCN(C(=O)c3ccc4[nH]ncc4c3)CC2)c2c(Br)cccc21)NCC(F)(F)F; assay = enzyme activity, inhibitor; endpoint = IC50; result = 3.9 µM
Compound = CCN(CC)CCOc1ccc(-c2nnn(Cc3ccc(OC)cc3)c2N)cc1; assay = CYP phenotyping; conditions = concentration not given; endpoint = inhibition; result = -1.8%
Compound = N#Cc1cccc2c1C1(CCN(C(=O)c3cnc4[nH]ncc4c3)CC1)C(=O)N2CC(=O)NCC(F)(F)F; assay = enzyme activity, inhibitor; endpoint = IC50; result = > 8 µM
Compound = C[C@H](NCc1ccc(-c2ccc(C(F)(F)F)cc2)cc1)C(N)=O; assay = P450-Glo luminescence; test system = potassium phosphate buffer; conditions = 10 µM, pH 7.4, isoform 2C9; endpoint = inhibition; result = 99.1%

For quick reference, copied from above:
Compound = C[C@@H](c1ccc2nccn2c1)n1nnc2ncc(-c3cn[nH]c3)nc21; assay = enzyme activity, inhibitor; test system = human, liver microsomes; endpoint = IC50; result = 13 µM
